Results of several laboratories.
Parts stem from different laboratories: compare values within a part only. Substitutions count along the parent as printed.

Set 1
Target: RNA binding protein fox-1 homolog 2, RRM domain, GST-SBP tag (RBFOX2, Homo sapiens, UniProt O43251-10, residues 100-194)
Method: RNA Bind-n-Seq
Form: RNA
Sample: in vitro
Concentration: 365 nM
Notes: natural RNA segment, single round, ends assumed
Reference: no-protein control
Reading: higher = stronger binding
Quantity: RBNS enrichment (R)
Target sequence (chain): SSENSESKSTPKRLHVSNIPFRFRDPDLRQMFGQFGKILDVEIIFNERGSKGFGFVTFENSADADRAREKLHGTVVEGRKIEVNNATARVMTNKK
Oligonucleotide = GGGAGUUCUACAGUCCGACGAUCCAAACUCUGCCUCUUCCUCCCAAGUGCUGGGAUUAAGGGCAGGUACCAUAGUGCUCAGCAACCACAACCCUGUCUUUCCAACACGGCCCUAGCGUAAGCACUGAGGCAGUUGGAAUUCUCGGGUGCCAA; result = 0.306
Oligonucleotide = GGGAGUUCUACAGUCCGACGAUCAGGAAUGAACUCUGUGGGUUCCUGGGGAUGGAAGGACCGACAGAGCGGCUGAGCUGCUGGCUCUCUGGAGACUCCGUAGAGAACCCAGCGAUCAAAAACCCACUGUGAUGUGGAAUUCUCGGGUGCCAA; result = 0.805
Oligonucleotide = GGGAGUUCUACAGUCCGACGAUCAUCUUACACGAAAGCCACAGAGUUGAAAGCCACAGAGUUGAAAGCCACAGAGUUAAGUGACCUCAGGUAACAUAAUGGUGAUGGUUGGCCAUUUGAGUCUUUGUAACCUAUGGAAUUCUCGGGUGCCAA; result = 0.42
Oligonucleotide = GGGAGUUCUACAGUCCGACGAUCGCCGUGGAAAACCUUUUCAGAAACUACAUUCAUUGUUCUUUAAGCAGACCAAAAGUCACAACAGUGGCAGGCAGGCUGCAUGCUUUUUGUAUCGCUCACGAUGCACUGUGUGGAAUUCUCGGGUGCCAA; result = 0.948
Oligonucleotide = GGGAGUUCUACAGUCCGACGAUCAGAUGCAUGAGACAAGAUGGAUUGCGAGCAAUUAGUGGAUGUGUGCACUUUUUGUUCAGAGUUUAAGGCUAGGAUAUUGGUUUUUCCCACUGACUGAGCUGUCCUGCAAAUGGAAUUCUCGGGUGCCAA; result = 16.3
Oligonucleotide = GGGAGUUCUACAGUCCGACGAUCUGGGACGUAUACAUUCUCCAUUCUUUUUGACAUUAUUUUGGCUAAUCUGGGUCCUCUGCAUUUCUGUAUAACUUACAAGGUCUGGUUGUCAGUUUUUGCAAAAAGGCCUGUGGAAUUCUCGGGUGCCAA; result = 0.844
Oligonucleotide = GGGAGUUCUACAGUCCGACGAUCGCAGUGUCGCCAUGACUGAUCAUGGCUCUUGCAUUUUUGGGUAAAUGGAGACUUCCGGAUCCUGUCAGGGUGUCCCCCAUGCCUGGAAGAGGAGCUGGUGGCUGCCAGCCUGGAAUUCUCGGGUGCCAA; result = 0.267
Oligonucleotide = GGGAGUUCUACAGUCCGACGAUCGGAAGGAAGUGGAUGCAGGGUGGAACAAAGAACCUCCGGUCACUGUAGCCCCUCUUCUCUGCUCUGCCCCUCCUUUCCUGUCCCCUCCUUUAGCCCCUUCCCCCAAGGACUGGAAUUCUCGGGUGCCAA; result = 0.75
Oligonucleotide = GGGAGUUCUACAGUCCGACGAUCAGAGAAUUGUCCUCUGACCUCCAUGUGCGGUAGCCCACGUGACGCACCCAAUAAUAAUUAAAUAAAUAAAAACAAGGAAUUCUGUUCUUUUGCUUUAUCAGGAACACCAAUGGAAUUCUCGGGUGCCAA; result = 0.339
Oligonucleotide = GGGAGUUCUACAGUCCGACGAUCUAUUAAUAGAUGCAUAUAUACAUGACAUAUUGUGGUUAAUUUUAAAACUACUGUGCCUUAACGUGUUUCUUAAACUUUUGUAGUAAAUGAACAUUUGAAAUCCAUUUUGAUGGAAUUCUCGGGUGCCAA; result = 0.42
Oligonucleotide = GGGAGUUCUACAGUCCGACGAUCCUCUGGCACGCUUGAGAGGAGUCAUGCCACUUUGAUGCUCCUUGCAGAGGUGGGACACUGAGGUGCUUUGCUUAAAUUUCAAAGCUUGCAUAUAUUCAUGUAAAUAUAUGUGGAAUUCUCGGGUGCCAA; result = 3.06
Oligonucleotide = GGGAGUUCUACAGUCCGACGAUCUUCUUAUGAAAGUCUAGACUGUCUUACUGUGAAGAUGGCCAGGGAGGAUAGCAAGCAAUGGCAUUCUUGAACAGUCUAAGGCAGGUUUCUCAGUGUGGUCCUGAGAACAGUGGAAUUCUCGGGUGCCAA; result = 1.07

Set 2
Target: ABI1, truncated, D143A, DHFR fusion (Arabidopsis thaliana)
Method: DHFR PCA, deep sequencing
Sample: yeast
Notes: methotrexate growth selection, single substitutions
Added: (+)-ABA 200 µM
Reference: wild-type fitted maximum
Reading: higher = stronger binding
Quantity: relative binding score
Starting sequence: PYL1, truncated, DHFR fusion (Arabidopsis thaliana); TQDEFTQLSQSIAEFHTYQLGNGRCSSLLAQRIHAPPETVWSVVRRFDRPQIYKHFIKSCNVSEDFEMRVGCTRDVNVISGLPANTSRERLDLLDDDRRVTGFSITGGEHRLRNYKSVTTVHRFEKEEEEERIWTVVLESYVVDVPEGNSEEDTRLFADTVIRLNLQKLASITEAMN; partner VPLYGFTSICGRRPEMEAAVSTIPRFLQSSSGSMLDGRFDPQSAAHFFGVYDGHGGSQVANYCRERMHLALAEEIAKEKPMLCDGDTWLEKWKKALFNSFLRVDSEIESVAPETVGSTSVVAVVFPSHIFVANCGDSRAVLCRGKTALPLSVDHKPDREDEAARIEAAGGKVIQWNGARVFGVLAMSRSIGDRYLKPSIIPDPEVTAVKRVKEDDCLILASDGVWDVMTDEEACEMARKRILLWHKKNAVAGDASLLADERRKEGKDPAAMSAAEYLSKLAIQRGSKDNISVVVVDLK
Variant = S27E; result = 64.8%
Variant = S11P; result = 95%
Variant = P50R; result = 5.19%
Variant = F157V; result = 76.5%
Variant = I57C; result = 71.3%
Variant = A13P; result = 57.7%
Variant = D159V; result = 9.94%
Variant = N177G; result = 97.5%
Variant = E139W; result = 94.5%
Variant = A30Y; result = 99.1%
Variant = W41F; result = 38.6%
Variant = T154L; result = 56.3%
Variant = G71A; result = 58.1%
Variant = S140K; result = 6.17%
Variant = Y18D; result = 67%
Variant = V118E; result = -19.3%

Set 3
Target: CCND1, cyclin fold, Cln2 fusion (human)
Method: yeast growth competition, sequencing
Sample: yeast
Notes: weak parent motif
Reference: not given
Reading: higher = stronger binding
Quantity: normalised enrichment score
Starting sequence: CDC6 docking peptide (human); TLKGRRLVFDNQL; partner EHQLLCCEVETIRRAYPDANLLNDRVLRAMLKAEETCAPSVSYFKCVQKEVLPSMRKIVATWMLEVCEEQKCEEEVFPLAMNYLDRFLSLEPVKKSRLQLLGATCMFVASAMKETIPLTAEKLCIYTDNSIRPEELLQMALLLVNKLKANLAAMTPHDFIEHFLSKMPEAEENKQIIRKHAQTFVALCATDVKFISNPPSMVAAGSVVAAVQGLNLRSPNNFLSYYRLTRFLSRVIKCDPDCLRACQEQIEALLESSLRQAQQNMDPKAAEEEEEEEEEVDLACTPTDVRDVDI
Variant = TLKGRRLVFDNQR [L13R]; result = 0.0795
Variant = TLLGRRLVFDNQL [K3L]; result = 0.366
Variant = LLKGRRLVFDNQL [T1L]; result = -0.123
Variant = WLKGRRLVFDNQL [T1W]; result = 0.533
Variant = TLIGRRLVFDNQL [K3I]; result = 1.33
Variant = TLKGRRLVFPNQL [D10P]; result = -0.329
Variant = TLKGRRLVFDNWL [Q12W]; result = 0.88
Variant = TLWGRRLVFDNQL [K3W]; result = -0.156
Variant = TLKGRRLVFDNQP [L13P]; result = 0.797
Variant = TLKGRRLVFDNQT [L13T]; result = 0.332
Variant = ELKGRRLVFDNQL [T1E]; result = 0.843
Variant = VLKGRRLVFDNQL [T1V]; result = 0.576
Variant = TLKGQRLVFDNQL [R5Q]; result = 0.154
Variant = TLKGKRLVLDNQL [R5K F9L]; result = 0.327

Set 4
Target: Histone acetyltransferase KAT6A, both winged helices, GST fusion (KAT6A, Homo sapiens, UniProt Q92794, residues 1-181)
Method: protein binding microarray
Form: double-stranded DNA, one strand shown
Sample: in vitro
Concentration: not given
Notes: 8-mer, flanks averaged, mean of 2 arrays, mostly near background
Reference: not given
Reading: higher = stronger binding
Quantity: E-score
Target sequence (chain): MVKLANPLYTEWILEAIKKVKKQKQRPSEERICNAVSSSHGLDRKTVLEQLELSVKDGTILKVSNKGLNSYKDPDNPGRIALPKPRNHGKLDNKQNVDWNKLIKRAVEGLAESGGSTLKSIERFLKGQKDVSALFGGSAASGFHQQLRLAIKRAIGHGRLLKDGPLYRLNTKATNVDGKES
Oligonucleotide = GTAATTTA; result = 0.019
Oligonucleotide = GTGCGAAC; result = 0.107
Oligonucleotide = GACTGCTC; result = -0.0822
Oligonucleotide = CATCCTCG; result = 0.055
Oligonucleotide = AGAAAGTC; result = -0.038
Oligonucleotide = CGTGATTA; result = 0.0291
Oligonucleotide = CGGTGACG; result = 0.137
Oligonucleotide = CACCGGGA; result = 0.149
Oligonucleotide = ACTCAAAC; result = -0.134
Oligonucleotide = AGCAATTG; result = 0.0767
Oligonucleotide = ACTGCAGC; result = -0.067
Oligonucleotide = CTCTTAAC; result = -0.0987
Oligonucleotide = CTCTAGCA; result = -0.28
Oligonucleotide = CAACTAAC; result = -0.035
Oligonucleotide = ATGAACGA; result = -0.0588
Oligonucleotide = AGAGCTTC; result = -0.151
Oligonucleotide = AATTACAA; result = -0.0919
Oligonucleotide = ACATGTTC; result = -0.00059
Oligonucleotide = TGTAGTAA; result = -0.0534
Oligonucleotide = ATTGTCTC; result = -0.082
Oligonucleotide = TCTCACCA; result = -0.082
Oligonucleotide = AGTTCGAT; result = -0.0513
Oligonucleotide = CAGACAGA; result = -0.128
Oligonucleotide = CTCTGGAC; result = -0.105
Oligonucleotide = CGGATCGA; result = 0.0703

Set 5
Target: Sal-like protein 4, full length isoform B (SALL4, Homo sapiens, UniProt Q9UJQ4-2, residues 1-616)
Method: universal PBM
Form: double-stranded DNA, one strand shown
Sample: in vitro
Concentration: not given
Notes: 8-mer, flanks averaged, mean of replicates
Reading: higher = stronger binding
Quantity: E-score
Construct (chain): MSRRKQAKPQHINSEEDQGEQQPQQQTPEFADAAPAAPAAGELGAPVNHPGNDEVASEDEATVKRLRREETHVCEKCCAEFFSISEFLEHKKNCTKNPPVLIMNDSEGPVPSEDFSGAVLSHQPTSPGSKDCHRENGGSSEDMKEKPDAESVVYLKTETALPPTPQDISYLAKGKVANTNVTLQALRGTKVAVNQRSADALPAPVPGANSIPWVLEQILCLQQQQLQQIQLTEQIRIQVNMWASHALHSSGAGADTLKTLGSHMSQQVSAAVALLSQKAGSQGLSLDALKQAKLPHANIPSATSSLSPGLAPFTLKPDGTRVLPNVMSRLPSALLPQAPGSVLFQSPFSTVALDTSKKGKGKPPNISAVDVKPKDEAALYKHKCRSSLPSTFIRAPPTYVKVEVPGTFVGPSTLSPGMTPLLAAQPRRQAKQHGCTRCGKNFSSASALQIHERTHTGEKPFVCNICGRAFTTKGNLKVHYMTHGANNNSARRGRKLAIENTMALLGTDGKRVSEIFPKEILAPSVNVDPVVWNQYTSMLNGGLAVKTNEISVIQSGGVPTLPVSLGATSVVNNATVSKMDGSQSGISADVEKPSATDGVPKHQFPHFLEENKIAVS
Oligonucleotide = CAGCTTCC; result = -0.25
Oligonucleotide = GCTTGCCA; result = -0.00143
Oligonucleotide = CCATGAAA; result = 0.15
Oligonucleotide = CGCACATC; result = -0.0849
Oligonucleotide = ACACACAA; result = 0.175
Oligonucleotide = CAACACGG; result = -0.159
Oligonucleotide = GGGCTTAA; result = -0.0492
Oligonucleotide = CAATCCTC; result = -0.0296
Oligonucleotide = AGCAGCCT; result = -0.115
Oligonucleotide = GTTGTTGA; result = 0.106
Oligonucleotide = CATACTAC; result = 0.0835
Oligonucleotide = CGTGCGAC; result = -0.186
Oligonucleotide = ACATCAGT; result = -0.0895
Oligonucleotide = AGACTACT; result = 0.101
Oligonucleotide = AAATCGCG; result = 0.0468
Oligonucleotide = CCTCGAGC; result = -0.194
Oligonucleotide = AGCCGACG; result = -0.266
Oligonucleotide = ATGAGAGA; result = 0.153
Oligonucleotide = AGGTTTGG; result = -0.166
Oligonucleotide = CTAACTGC; result = -0.158
Oligonucleotide = GGGGTACC; result = -0.305
Oligonucleotide = ACGCCGCT; result = -0.327

For quick reference, copied from above (set 4):
Oligonucleotide = CACCGGGA; result = 0.149
Oligonucleotide = ACTCAAAC; result = -0.134
Oligonucleotide = AGCAATTG; result = 0.0767
Oligonucleotide = ACTGCAGC; result = -0.067
Oligonucleotide = CTCTTAAC; result = -0.0987
Oligonucleotide = CTCTAGCA; result = -0.28
Oligonucleotide = CAACTAAC; result = -0.035
